Measurements pooled from the literature.
Lines come from different studies, so protocols differ. Numbers after ± are the reported error.

CN[C@](C)(C[18F])C(=O)O  tracer uptake (DU-145 tumour model; host not given, tumour; 2 h, tumour-bearing): 4.3 %ID/g
CC1(C)C=Cc2c(ccc3c(=O)cc(-c4ccccc4)oc23)O1  viability (differentiated SH-SY5Y; MTT; 1 µM; baseline: control): 97.4 ± 3.5%
COC(=O)C1CN1S(=O)(=O)c1cccc(C(F)(F)F)c1 (centres unmarked)  IC50 (Balb/c 3T3 fibroblasts; cytotoxicity, neutral red uptake; DMEM with 5% FBS; 24 h): 450 ± 20 µM
CCCCn1cc(C(=O)O)c(=O)c2cc(F)c(Nc3cccc(Cl)c3)c(N)c21  IC50 (PANC-1; cell growth or viability, SRB): 5.7 µM
N=C(N)NCCC[C@@H]1NC(=O)[C@H](Cc2csc3ccccc23)NC(=O)[C@@H](Cc2ccccc2)NC(=O)[C@H](Cc2ccccc2)NC(=O)[C@H](CCC(=O)NCCOCCOCC(=O)N[C@@H](CCCCNC(=O)c2ccc3c(c2)C(=O)OC32c3ccc4cc(O)ccc4c3Oc3c2ccc2cc(O)ccc32)C(N)=O)NC(=O)[C@@H](CCCNC(=N)N)NC(=O)[C@H](CCCNC(=N)N)NC(=O)[C@@H](CCCNC(=N)N)NC1=O  endosomal escape efficiency (HeLa; 5.0 µM, 1% FBS; baseline: CPP12): 108 ± 9%
COc1c(C(=O)/C=C(\O)c2ccccc2)ccc2c1C=CC(C)(C)O2  viability (differentiated SH-SY5Y; MTT; 0.1 µM; baseline: control): 102 ± 1.2%
CCCCn1cc(C(=O)O)c(=O)c2cc(F)c3c(nnn3-c3ccccc3Cl)c21  IC50 (PANC-1; cell growth, SRB; 72 h): 15.6 ± 1.41 µg/mL
CN(C)CC1CCCCC1(O)c1cccc(O)c1 (centres unmarked)  efflux increase (Caco-2; concentration not given, 3 h, pH 7.4, basolateral-to-apical, added: cyclosporine A 10 µM): ≤ 14%
COc1ccc(CNc2nc(N3CCC[C@H]3CO)ncc2C(=O)NN)cc1Cl  revertant count (Salmonella typhimurium; TA100; 500 µg/plate, 48 h): 124 ± 12
COC1=C[C@@H]2[C@@H]3Cc4ccc(OC)c(OC(=O)c5cnccn5)c4[C@]2(CCN3C)CC1=O  IC50 (RAW264.7; cytotoxicity, MTT; 24 h): > 100 µM
N=C(N)NCCC[C@H](NC(=O)[C@H](CCCNC(=N)N)NC(=O)[C@H](CCCNC(=N)N)NC(=O)[C@H](CCC(N)=O)NC(=O)[C@H](CCCNC(=N)N)NC(=O)[C@H](CCCNC(=N)N)NC(=O)[C@H](CCCCN)NC(=O)[C@H](CCCCN)NC(=O)[C@H](CCCNC(=N)N)NC(=O)[C@H](Cc1c[nH]c2ccccc12)NC(=O)[C@H](Cc1c[nH]c2ccccc12)NC(=O)[C@@H](N)CSSC[C@H](N)C(=O)N[C@@H](Cc1c[nH]c2ccccc12)C(=O)N[C@@H](Cc1c[nH]c2ccccc12)C(=O)N[C@@H](CCCNC(=N)N)C(=O)N[C@@H](CCCCN)C(=O)N[C@@H](CCCCN)C(=O)N[C@@H](CCCNC(=N)N)C(=O)N[C@@H](CCCNC(=N)N)C(=O)N[C@@H](CCC(N)=O)C(=O)N[C@@H](CCCNC(=N)N)C(=O)N[C@@H](CCCNC(=N)N)C(=O)N[C@@H](CCCNC(=N)N)C(=O)NCC(N)=O)C(=O)NCC(N)=O  SYTOX green-positive cells (sample A primary mouse astrocytes; concentration not given, 1 h): < 15%
COC(=O)C1CN1S(=O)(=O)c1ccc(C(C)C)cc1 (centres unmarked)  IC50 (Balb/c 3T3 fibroblasts; cytotoxicity, neutral red uptake; DMEM with 5% FBS; 24 h): 487 ± 14 µM
COc1c2c(cc3oc(-c4ccccc4)cc(=O)c13)OC(C)(C)C=C2  viability (differentiated SH-SY5Y; MTT; 0.1 µM; baseline: control): 97.1 ± 1.7%
CC[C@H](C)C(=O)N1CCC(NC(=O)Nc2ccc(OC(F)(F)F)c(F)c2)CC1  AUC(0-inf) (human, plasma; oral, 8 mg, fasted): 3240 ng·h/mL
N=C(N)NCCC[C@@H]1NC(=O)[C@H](CCCCNC(=O)CCOCCOCCOCCOCCNC(=O)CC[C@H](NC(=O)CCOCCOCCOCCOCCNC(=O)CC[C@H](NC(=O)CN2CCN(CC(=O)O)CCN(CC(=O)O)CCN(CC(=O)O)CC2)C(=O)NCCOCCOCCOCCOCCC(=O)N[C@@H](CCC(=O)NCCOCCOCCOCCOCCC(=O)NCCCC[C@@H]2NC(=O)[C@@H](Cc3ccccc3)NC(=O)[C@H](CC(=O)O)NC(=O)CNC(=O)[C@H](CCCNC(=N)N)NC2=O)C(=O)NCCOCCOCCOCCOCCC(=O)NCCCC[C@@H]2NC(=O)[C@@H](Cc3ccccc3)NC(=O)[C@H](CC(=O)O)NC(=O)CNC(=O)[C@H](CCCNC(=N)N)NC2=O)C(=O)NCCOCCOCCOCCOCCC(=O)NCCCC[C@@H]2NC(=O)[C@@H](Cc3ccccc3)NC(=O)[C@H](CC(=O)O)NC(=O)CNC(=O)[C@H](CCCNC(=N)N)NC2=O)NC(=O)[C@@H](Cc2ccccc2)NC(=O)[C@H](CC(=O)O)NC(=O)CNC1=O [indium-111 labelled]  tissue uptake (female athymic nude mice, heart; intravenous, 3 µCi, 24 h, U-87 MG glioma xenograft): 0.55 ± 0.06 %ID/g
C=C1C(=O)O[C@H]2C[C@H](C)C(/C=C/C(C)=O)=CC[C@H]12  minimum cytotoxic concentration (MDCK; cell morphology): 4 µM
CC(=O)N[C@@H](CO)C(=O)N[C@@H](CC(=O)O)C(=O)N[C@@H](CCCCNC(=O)CCCC[C@@H]1SC[C@@H]2NC(=O)N[C@@H]21)C(=O)N1CCC[C@H]1C(=O)O  cellular uptake (A549; flow cytometry; 40 µg/mL, 120 min, 37 °C; baseline: cells): 96.6 ± 1.9%
CN(C)c1ccc2c(c1)Oc1cc(N(C)C)ccc1C21OC(=O)c2cc(C(=O)NCC(=O)N[C@H](CCCNC(=N)N)C(=O)N[C@H](CCCCN)C(=O)N[C@H](CCCCN)C(=O)N[C@H](CCCNC(=N)N)C(=O)N[C@H](CCCNC(=N)N)C(=O)N[C@H](CCC(N)=O)C(=O)N[C@H](CCCNC(=N)N)C(=O)N[C@H](CCCNC(=N)N)C(=O)N[C@H](CCCNC(=N)N)C(=O)O)ccc21  cellular uptake (caveolin-1 KO mouse endothelioma; 10 µM, 37 °C, TAMRA-labelled; baseline: wild type): no effect
N=C(N)NCCC[C@@H]1NC(=O)[C@H](CCCCNC(=O)CC[C@H](NC(=O)CCOCCOCCOCCOCCNC(=O)CN2CCN(CC(=O)O)CCN(CC(=O)O)CCN(CC(=O)O)CC2)C(=O)NCCCC[C@@H]2NC(=O)[C@@H](Cc3ccccc3)NC(=O)[C@H](CC(=O)O)NC(=O)CNC(=O)[C@H](CCCNC(=N)N)NC2=O)NC(=O)[C@@H](Cc2ccccc2)NC(=O)[C@H](CC(=O)O)NC(=O)CNC1=O [indium-111 labelled]  tissue uptake (female athymic nude mice, brain; intravenous, 3 µCi, 0.5 h, U-87 MG glioma xenograft): 0.11 ± 0.02 %ID/g
CO/C(=C\C(=O)c1ccc2occc2c1OC)c1ccccc1  viability (differentiated SH-SY5Y; MTT; 100 µM; baseline: control): 98.5 ± 4.1%

For quick reference, copied from above:
CC1(C)C=Cc2c(ccc3c(=O)cc(-c4ccccc4)oc23)O1  viability (differentiated SH-SY5Y; MTT; 1 µM; baseline: control): 97.4 ± 3.5%
COC(=O)C1CN1S(=O)(=O)c1cccc(C(F)(F)F)c1 (centres unmarked)  IC50 (Balb/c 3T3 fibroblasts; cytotoxicity, neutral red uptake; DMEM with 5% FBS; 24 h): 450 ± 20 µM
